Measurements pooled from the literature.
Parts stem from different laboratories: compare values within a part only. Changes are numbered by the printed parent chain.

Study 1
Target: RNA binding protein fox-1 homolog 2, RRM domain, GST-SBP tag (RBFOX2, Homo sapiens, UniProt O43251-10, residues 100-194)
Technique: RNA Bind-n-Seq
Molecule type: RNA
Matrix: in vitro
Tested at: 365 nM
Setting: natural RNA segment, single round, ends assumed
Reference: no-protein control
Direction: higher = stronger binding
Measurement: RBNS enrichment (R)
Shared flanks, not repeated: GGGAGUUCUACAGUCCGACGAUC … UGGAAUUCUCGGGUGCCAA
Residues (chain): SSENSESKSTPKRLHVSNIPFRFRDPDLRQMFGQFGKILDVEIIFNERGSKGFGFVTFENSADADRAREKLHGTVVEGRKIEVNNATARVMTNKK
GAGUAAUGCUGGCUCUGAACAAACUUUUGAAAACUUAGUUGACAGUGUUUUGAGUCAACUGAAAAAAAGCAUGACUUUUGGAAUCUCUGAAUGCCUUGGUUCUCAGUAUU: 17.4
UUAAAAUCAACUUUAUAACUAAUUCAUACUAUAAGACAGAUAAUAGCUAAAGUUUUGGAAUAAUUUAUAUUAAAAGCCGCAAGUCUUAAAAAUCCCUGGAUAUGACAUAA: 0.433
AGGGCGCCAACUUCAGGAGUCCGCUUUCCCACCAGGCUUCAUUCACCCAGUGGACCUGAACUGUUUGGUAGAGCCACCCGGCCCUUCCUUCCUCAUUGUUGUUUGGUAUG: 0.329
AGUAGAAAGGGCGACUGACCCUCAUCAAACACAGUCUUAGCGGAGAUCCACUGAUGGCCCUGGCCCCUGCUGGGGCGGGGCAGGAGGCAGCCCUGCUCCUUGCCUUUUGC: 0.249
UCUUCCCAAACCCAUGGUGCUUUUUCCCCAACUCAACCUAGACUCCAAGGUGGGGAGGGAUGGGUCAGAGGCCAUAGUGGCCCCUGGAUAAUCCUGACGUGGGGUGGAGU: 0.396
CGGGGAAGGGAAAAACCUGUUGGAGUUGCUUCCAGCCAGCCACGCUCCGGGCCAGCAUGUUGGAAUCCAGCGUGGAGCAGAUGCAGUAAAAAUGUGGUUGGUUUCUGUGU: 19.7
GGAGAAUUGCCGGGAGUACAAAGUCAACCGGAGCUAAAUAAUAUCAGCCACCAGGACUACAUAACGAAAGAUUGCCACAGAGGAAAGGAAGGAAGAAAAAGCCAGCAAUC: 0.479
AGAGUUAAUGGCAACCAAUAAUGGUGGCCUGUAGCUGCUAAGAGCUUCACGCAGGUUUGGCCUGGGCUUUCACUGUUGGUGAAUUUAGAGUGUCCUUUUAGGUGGGGCGG: 0.392
CGUGGCUGCACGGAGUCACAAGCCUCUUGACAUGUUAGCCAUUUCCAGCGUCCUAACUGACUGUAAUCGACCGGGUUUUCAUCCCCUGUCCCAUCCCCUGAGCAUCUUUU: 0.402
CUCUGCCAUCACAGAGAAGGAGACACACUUUGAGUCCCCACCAGCCAUUUGGAUGCGGCUCCAACCUUCCUUCCCUGCGUGUAAAUGAAUCCUGAACCUCGUACUUCACC: 0.395
GGGGGUAGAGGCUUCUUAGAUUCUCCCAGCAUCCGCCUUUCCCUUUAGCCAGUCUGCUGUCCUGAAACCCAGAAGUGAUGGAGAGAAACCAACAAGAGAUCUCGAACCCU: 0.736
GGAGCAGAAACAUAAUCAAUCCCUCCCUGAGAUAAAAUGUGGGCAUGCACAUUGCUUUGGAGUCAGUAUUCAGCUGUAAGUGUAGUAUUGUUUUAUGGCUGAAAUAGAAA: 18.7

Study 2
Target: Interferon regulatory factor 3, full length, phosphomimetic (IRF3, Homo sapiens, UniProt Q14653, residues 1-427, S386D/S396D/S398D/S402D/T404D/S405D)
Technique: protein-binding microarray
Molecule type: double-stranded DNA, one strand shown
Matrix: in vitro
Tested at: 2540 nM top
Setting: 60-bp whole probe
Together with: salmon DNA 0.4 mg/ml
Reference: random background probes
Direction: higher = stronger binding
Measurement: fitted relative affinity
Shared flanks, not repeated: GCCTAGCAC … GTCTTGATTCGCTTGACGCTGCTG
Construct (chain): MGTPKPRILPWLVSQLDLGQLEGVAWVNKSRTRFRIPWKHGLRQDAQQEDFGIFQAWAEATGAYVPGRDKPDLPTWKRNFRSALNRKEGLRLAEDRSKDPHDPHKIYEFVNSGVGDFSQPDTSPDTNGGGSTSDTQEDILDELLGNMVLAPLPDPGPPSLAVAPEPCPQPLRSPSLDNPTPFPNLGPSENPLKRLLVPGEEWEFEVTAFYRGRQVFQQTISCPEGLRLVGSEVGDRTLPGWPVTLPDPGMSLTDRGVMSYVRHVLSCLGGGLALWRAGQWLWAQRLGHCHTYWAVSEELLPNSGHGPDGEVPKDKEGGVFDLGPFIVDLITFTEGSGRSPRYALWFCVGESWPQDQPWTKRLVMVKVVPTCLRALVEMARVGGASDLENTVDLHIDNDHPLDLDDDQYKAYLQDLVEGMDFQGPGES
TACGGTCTCCTTCTCCTGACGTGCTAG: 4.11 z-score
GACGATTCCGGGACTGGAGACGTGCTA: 0.155 z-score
AAACTAGTGTTTTTCTCCTAGTGCTAG: 0.616 z-score
GCTTCTATGTAGTTGATGAAGTGCTAG: 0.131 z-score
GACGGACTGGAGTATCGGGACGTGCTA: -0.267 z-score
TAAGGTCTCGGTTTCGGTTAGTGCTAG: 5.33 z-score
GACGGTATCGCGTATCGGGACGTGCTA: 0.67 z-score
TCATGTGTGTGTTTGTGACTGTGCTAG: -0.606 z-score
GAGGATTTCAGTTCCGAGACGTGCTAG: 2 z-score
GACGATCCCAGTCTCGAGACGTGCTAG: 0.883 z-score
TTAGGTTTCGGGTTTCGGTTGGTGCTA: 5.7 z-score
TCAATTTTCTCTGTTCTACTGTGCTAG: 1.14 z-score
ACAGGAGTGTTTCTCAGTTTGTGCTAG: 0.728 z-score
TTAGATCTCAGTATTGATTAGTGCTAG: 0.298 z-score
TTAGATGCCAGTTTCGATTAGTGCTAG: 3.37 z-score
TAATATATATATTGTTAGTGTGTGCTA: 0.273 z-score
TTAGACATCAGTTTCGATTAGTGCTAG: 3.29 z-score
GACGATTTCAGTATTGAGACGTGCTAG: 2.02 z-score
TTAGGTATCAGGTATCGGTTAGTGCTA: 2.52 z-score
GACGGACTGCTTCTCCTTACGTGCTAG: -0.0632 z-score
GACGATCTCAATCTCGAGACGTGCTAG: 1 z-score
TCTACTTCTCTTTTGGCTTTGTGCTAG: 1.36 z-score
GACGGTTACGACACTGGGGACGTGCTA: -0.0325 z-score
GACGTTCTCCTTATCCTGACGTGCTAG: 2.79 z-score
GACGGTCTCGGTTTCGGGAGGTGCTAG: 3.54 z-score

Study 3
Target: Centromere-binding protein 1, full length, N-terminal tag (CBF1, Saccharomyces cerevisiae, UniProt P17106, residues 1-351)
Chain of UniProt P17106 (whole entry, looked up): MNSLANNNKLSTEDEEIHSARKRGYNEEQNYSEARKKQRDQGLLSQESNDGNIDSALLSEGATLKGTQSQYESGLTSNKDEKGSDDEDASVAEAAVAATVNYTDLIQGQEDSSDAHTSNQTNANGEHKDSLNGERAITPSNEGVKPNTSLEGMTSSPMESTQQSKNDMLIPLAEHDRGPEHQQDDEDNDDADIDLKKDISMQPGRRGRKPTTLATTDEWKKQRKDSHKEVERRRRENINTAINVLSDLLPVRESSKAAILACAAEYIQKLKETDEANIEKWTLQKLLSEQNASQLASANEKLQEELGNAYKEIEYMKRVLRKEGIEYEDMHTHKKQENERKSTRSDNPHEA
Technique: protein-binding microarray
Molecule type: double-stranded DNA, one strand shown
Matrix: in vitro
Tested at: 0.8 µM
Setting: whole 60-bp probe, no competitor
Direction: higher = stronger binding
Measurement: fluorescence intensity
Shared flanks, not repeated: … GTCTTGATTCGCTTGACGCTGCTG
TGTACGAAGCTATTGTTCGTGGGTATAGTAGTTAGG: 525 a.u.
TGTACGAAGCTATGTCATGCGCGTATAGTAGTTAGG: 611 a.u.
CTAAGAAGAGAAAGTCACGGAATTGTCTACATATTC: 552 a.u.
GAAATATTTTGACGTGACGTGGTTTATTAGCAATAG: 935 a.u.
GAATAAGGATTGGATCAGGTGCTTACAAATTTTTAG: 1490 a.u.
GAAATTTGTGTCAACGGCGTGCTCTATTCCTTGTAG: 566 a.u.
CTATTGAAAAACAGTCATCAGATGTTTGGGAAGTTC: 588 a.u.
CTACACGCTTTCACACACGCAATTTGAAATAGCTTC: 561 a.u.
GAATTAGATCCTTGTCACATAATCATAAAAATATAG: 607 a.u.
GAACTAATCGGCATTGATGTTACACAAGGGAAATAG: 540 a.u.
GAATTATTCTTTTTTCATATGATTTCTTATTTATAG: 511 a.u.
GAAAAGGTATTGGGCCATGACGTCAGATCCTGGTAG: 504 a.u.
GAAAAATGATTTCGACAGGTGACCTTTAAGTTCTAG: 1710 a.u.
GAAAGGAGTGGAGTAGTCGTGCTATATAGGGCATAG: 530 a.u.
CTAACGCAAGCAAGAGGTGACACATAAACATAGTTC: 508 a.u.
GAAGCTTTTAATTATCACGTTGCCACTTTAACATAG: 2360 a.u.
CTAGCCCCTAGATGTCACCTGAGCTGTAGTCAATTC: 1080 a.u.
CTAATGCTTGCATCGTGCATGAATACATACCGCTTC: 547 a.u.
GAAGGTGCCGTTTGTCACGTGGGACGGGATGCGTAG: 9490 a.u.
GAAACAAAAGCAAATCACATGTGCACATACGTCTAG: 4150 a.u.

Study 4
Target: ABI1, truncated, D143A, DHFR fusion (Arabidopsis thaliana)
Technique: DHFR PCA, deep sequencing
Matrix: yeast
Setting: methotrexate growth selection, single substitutions
Together with: (+)-ABA 4.8 µM
Reference: wild-type fitted maximum
Direction: higher = stronger binding
Measurement: relative binding score
Starting sequence: PYL1, truncated, DHFR fusion (Arabidopsis thaliana); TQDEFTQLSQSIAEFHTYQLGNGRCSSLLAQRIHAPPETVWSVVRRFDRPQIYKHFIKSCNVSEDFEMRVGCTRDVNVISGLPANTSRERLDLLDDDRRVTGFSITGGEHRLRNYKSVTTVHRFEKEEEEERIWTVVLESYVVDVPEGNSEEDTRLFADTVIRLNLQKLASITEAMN
K116W: 1.21%
D144L: -2.87%
Q19A: 71.4%
H110G: 6.35%
V44P: -8.42%
N22L: 67.6%
T101S: 37.7%
S11V: 80.9%
S27V: 1.32%
S42D: 67.2%
A170L: -5.41%
F157D: 6.11%
L169G: -5.11%

Study 5
Target: CCNB1, cyclin fold, Cln2 fusion (human)
Technique: yeast growth competition, sequencing
Matrix: yeast
Setting: strong parent motif
Reference: not given
Direction: higher = stronger binding
Measurement: normalised enrichment score
Starting sequence: MICAL3 docking peptide (human); LQLRRQLSFSEDS
LQLRRQQSFSEDS [L7Q]: 0.0415
LFLRRQLSFSEDS [Q2F]: 4.03
LNLRRQLSFSEDS [Q2N]: 4.91
LQLRRQLSFSEFS [D12F]: 3.35
LRLRRQLSFSEDS [Q2R]: 5
LQLRRQLSMSEDS [F9M]: 0.528
LQLRRQLSFIEDS [S10I]: 2.04
LQGRRQLSFSEDS [L3G]: 0.607
LQLRRQLSFSEPS [D12P]: 4.17
LQLRRQLRFSEDS [S8R]: 1.1
LQLRRQLSFDEDS [S10D]: 4.76
LQLRRQLVFSEDS [S8V]: 2.41
LQLRRQLSFHEDS [S10H]: 3.23
LQLRFQLSFSEDS [R5F]: 0.361
LQLRRQLSTSEDS [F9T]: 0.262
LQLRRQLSVSEDS [F9V]: -0.221
LQLRRPLSFSEDS [Q6P]: 2.08
LQLRRQMSFSEDS [L7M]: 0.836
LQLRRQLSFCEDS [S10C]: 3.5
LQLRWQLSFSEDS [R5W]: 1.11
LQLRRQTSFSEDS [L7T]: 0.0711
LQLRRQLSFSMDS [E11M]: 2.69
LQLRRQLSFVEDS [S10V]: 2.11
LQLRRQNSFSEDS [L7N]: -0.0473
LQLRRQLCFSEDS [S8C]: 1.46
